Assay results gathered from unrelated publications.
Each numbered part is a random draw from the data of one study; scales do not carry over between parts. Positions count from the first letter of the parent shown.

Set 1
Target: CCND2, cyclin fold, Cln2 fusion (human)
Technique: yeast growth competition, sequencing
Matrix: yeast
Notes: weak parent motif
Relative to: not given
Reading: higher = stronger binding
Starting sequence: CABLES2 docking peptide (human); ICAKRSLCAAFSV
Substitution | normalised enrichment score
ICAARSLCAAFSV [K4A] | -0.351
ICAKRALCAAFSV [S6A] | -0.117
ICAKRSLCAAASV [F11A] | 0.209
ICAKRSACAAFSV [L7A] | -0.18
IAAKRSLCAAFSV [C2A] | -0.451

Set 2
Molecule: PhoQ, residues 284 288 289 292 302 303 TLMATV
Technique: Sort-seq
Refers to: YFP reporter
Matrix: E. coli
Notes: PhoQ-PhoP variant library
Added: 10 µM Mg2+
Relative to: high Mg2+ state
Reading: higher = stronger signaling
target | fold induction
PhoP, residues 12 14 15 18 19 QYFSL (Escherichia coli, UniProt P23836) | 2.16
PhoP, residues 12 14 15 18 19 NYFRM (Escherichia coli, UniProt P23836) | 10
PhoP, residues 12 14 15 18 19 TQALL (Escherichia coli, UniProt P23836) | 3.05

Set 3
Target: Sox, HMG box (Pigoraptor chileana)
Technique: Spec-seq
Molecule type: double-stranded DNA, one strand shown
Matrix: in vitro
Tested at: not given
Notes: whole probe, mean of replicates
Relative to: not given
Reading: lower = stronger binding
All sequences stand within: GAGTCGTCTCGTCAGCAC … CCGTAGAGCACTCAGGTC
Target sequence (chain): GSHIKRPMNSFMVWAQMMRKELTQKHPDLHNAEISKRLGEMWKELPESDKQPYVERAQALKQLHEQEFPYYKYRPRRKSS
Strand | relative binding energy [ln ratio]
CATTATG | -1.79
CACAGTT | -0.106
CATGATG | 0.31
TTGCGTT | 0.821
CATGAGG | 0.424
AAAAGTT | -1.22
CATAATG | -1.43
CCGTGTT | 0.321
CATGATC | 0.681
CATCGTG | 0.393
CATACAG | -0.322
CATTAGT | 0.115
GCGCGTT | 1.4
CAGAGTT | 1.12
TCGCGTT | 1.22

Set 4
Target: Sal-like protein 4, full length isoform A (SALL4, Homo sapiens, UniProt Q9UJQ4, residues 1-1053)
Chain of UniProt Q9UJQ4 (whole entry, looked up): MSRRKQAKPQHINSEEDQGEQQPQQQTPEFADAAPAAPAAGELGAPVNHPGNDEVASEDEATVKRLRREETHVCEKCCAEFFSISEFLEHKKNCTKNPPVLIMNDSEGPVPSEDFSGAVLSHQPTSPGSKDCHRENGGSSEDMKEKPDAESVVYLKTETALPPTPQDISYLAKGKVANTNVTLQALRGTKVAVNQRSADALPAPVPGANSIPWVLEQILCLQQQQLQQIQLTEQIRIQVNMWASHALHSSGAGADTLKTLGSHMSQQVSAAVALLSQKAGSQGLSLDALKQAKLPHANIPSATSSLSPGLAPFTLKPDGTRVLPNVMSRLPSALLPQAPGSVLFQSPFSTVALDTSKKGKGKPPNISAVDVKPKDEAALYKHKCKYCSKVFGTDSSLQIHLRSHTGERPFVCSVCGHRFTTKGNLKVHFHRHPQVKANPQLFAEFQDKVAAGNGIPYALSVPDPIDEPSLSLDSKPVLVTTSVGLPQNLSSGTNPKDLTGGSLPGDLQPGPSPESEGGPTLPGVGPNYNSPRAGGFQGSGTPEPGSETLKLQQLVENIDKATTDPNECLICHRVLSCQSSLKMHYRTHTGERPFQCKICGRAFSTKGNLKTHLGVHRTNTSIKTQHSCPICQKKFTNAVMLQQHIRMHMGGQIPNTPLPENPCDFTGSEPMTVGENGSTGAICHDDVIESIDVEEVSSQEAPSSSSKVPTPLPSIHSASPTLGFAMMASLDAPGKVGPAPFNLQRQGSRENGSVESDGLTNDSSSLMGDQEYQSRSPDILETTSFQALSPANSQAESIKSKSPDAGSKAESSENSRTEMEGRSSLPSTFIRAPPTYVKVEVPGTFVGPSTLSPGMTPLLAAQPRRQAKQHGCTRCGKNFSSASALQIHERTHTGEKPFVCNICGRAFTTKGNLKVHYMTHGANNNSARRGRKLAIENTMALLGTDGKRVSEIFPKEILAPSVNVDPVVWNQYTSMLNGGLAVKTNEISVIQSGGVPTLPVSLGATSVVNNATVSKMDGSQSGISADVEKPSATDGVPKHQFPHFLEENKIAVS
Technique: universal PBM
Molecule type: double-stranded DNA, one strand shown
Matrix: in vitro
Tested at: 600 nM
Notes: 8-mer, flanks averaged, mean of replicates
Reading: higher = stronger binding
Strand | E-score
ATATGACC | 0.17
CGCTTGTC | -0.164
TGCGGTAA | 0.127
AGTGACAG | -0.0205
AGGCGAAC | -0.248
CAGCTCCC | -0.329
AAGGTCGA | 0.0962
GTCCAACA | -0.121
GAATGGCA | 0.00715
GCACTTCA | 0.0993
ATCACAGC | 0.055
GGGTGGCA | -0.369
AGATAGGG | -0.12
CGGGCAAC | -0.362
ATTGGATC | 0.117
CAAACATC | 0.0842
CGGTTTGC | -0.164
AGGTTCGA | 0.0354
CGATAAAC | -0.0106
